Results of several laboratories.
Lines come from different studies, so protocols differ. “And” joins repeats or separate records; there may be more than shown. Values after ≈ are worked out from the molar mass of the structure shown.
Organism: Pseudomonas aeruginosa

| SMILES | test | test system | conditions | how to read | quantity | value |
| --- | --- | --- | --- | --- | --- | --- |
| Cc1c([N+](=O)[O-])oc2ccc3ccccc3c12 | REMA | – | – | – | MIC90 | > 32 µg/mL |
| CNC(=O)COc1ccc2nc(N)sc2c1 | swarming area | PA14-lux | 200 µM, 24 h | reference: DMSO | swarming inhibition | -25% and -25.3% |
| Cn1c(=O)ccc2ccc(F)c(CCNC[C@H]3CN(c4cnc5c(n4)NC(=O)CO5)C(=O)O3)c21 | – | – | – | – | MIC50 | 0.5 µg/mL (≈ 1.07 µM) |
| Nc1nc2ccc(Oc3ccc(=O)[nH]c3)cc2s1 | swarming area, modified FAB agar | PA14-lux | 200 µM, 24 h | reference: DMSO vehicle | inhibition | 26% |
| N=C(N)NCCC[C@H](NC(=O)[C@H](Cc1c[nH]c2ccccc12)NC(=O)[C@@H](N)CCCNC(=N)N)C(=O)N[C@@H](Cc1c[nH]c2ccccc12)C(=O)N[C@@H](CCC(N)=O)C(=O)N[C@@H](Cc1ccccc1)C(=O)N[C@@H](CCC(N)=O)C(=O)N[C@@H](Cc1ccccc1)C(=O)N[C@@H](CCCCN)C(N)=O | – | – | – | – | MBC | 620 µM |
| CC[C@H](C)[C@H](NC(=O)[C@H](CC(C)C)NC(=O)[C@@H]1CCCN1C(=O)[C@@H](N)CC(C)C)C(=O)N[C@H](C(=O)N[C@@H](Cc1ccccc1)C(=O)N[C@@H](CC(C)C)C(=O)N[C@@H](CCCNC(=N)N)C(=O)N[C@@H](CC(N)=O)C(=O)N[C@@H](CCCNC(=N)N)C(=O)N[C@@H](CC(C)C)C(=O)N[C@@H](CCCCN)C(=O)N[C@@H](Cc1ccc(O)cc1)C(=O)O)[C@@H](C)CC | – | – | – | – | MBC | 128 µg/mL |
| COc1ccccc1C(=O)C#Cc1ccc(F)c(F)c1 | – | – | 10 µM, 24 h | reference: untreated | rhamnolipid production | 32% |
| CCc1c([N+](=O)[O-])oc2ccc3ccccc3c12 | REMA | – | – | – | MIC90 | > 32 µg/mL |
| CC(N)C(O)CCCCCCCCCCCCCCC(=O)CCCCCCCC(O)C(C)N (stereo not drawn) | resazurin | ATCC 27853 | 50 µM | – | growth inhibition | -4% |
| CC(C)CC1NC(=O)C(C(=O)NC(C(=O)NC2C(=O)N3C2SC(C)(C)C3C(=O)O)c2ccccc2)=C1O (stereo not drawn) | broth microdilution | TonB-dependent receptor mutant | PA two-allele library | – | MIC | 25 µg/mL |
| CC(C)C[C@H](NC(=O)[C@H](CCN)NC(=O)[C@H](CCN)NC(=O)[C@@H](Cc1ccccc1)NC(=O)[C@H](CC(C)C)NC(=O)[C@H](CCN)NC(=O)[C@H](CCN)NC(=O)[C@H](N)CCN)C(N)=O | – | PAO1 | 24 h, 37 °C | – | MBC | > 128 µM |
| O=C(O)CN(CC(=O)O)CC(=O)O | – | VIM-2 and OXA-50 producer | 32 µg/mL, added: meropenem | – | meropenem MIC | 2 µg/mL |
| NC(=O)COc1ccc2nc(N)sc2c1 | pyocyanin production | PA14-lux | 200 µM, 18 h | reference: DMSO vehicle | inhibition | 11.7% |
| COc1cc(C#CC(=O)CC(C)C)ccc1O | – | – | 10 µM, 24 h | reference: untreated | exoprotease production | 91% |
| COc1ccc2c(ccc3oc([N+](=O)[O-])c(OC)c32)c1 | REMA | – | – | – | MIC90 | > 32 µg/mL |
| O=C(O)c1cccc(C(=O)O)n1 | – | VIM-2 producer | 32 µg/mL, added: meropenem | – | meropenem MIC | 2 µg/mL |
| CC(C)(C)OCC1NC(=O)C(C(=O)NC(C(=O)NC2C(=O)N3C2SC(C)(C)C3C(=O)O)c2ccccc2)=C1O (stereo not drawn) | – | fptA mutant | – | – | MIC | 25 µg/mL |
| N=C(N)NCCC[C@H](NC(=O)[C@@H](N)CCCNC(=N)N)C(=O)N[C@@H](Cc1c[nH]c2ccccc12)C(=O)N[C@@H](Cc1c[nH]c2ccccc12)C(=O)N[C@@H](Cc1ccccc1)C(=O)N[C@@H](CCC(N)=O)C(=O)N[C@@H](Cc1ccccc1)C(=O)N[C@@H](CCC(N)=O)C(=O)N[C@@H](Cc1ccccc1)C(=O)N[C@@H](CCCCN)C(N)=O | – | – | – | – | MBC | 1130 µM |
| COc1c([N+](=O)[O-])oc2ccc3ccccc3c12 | REMA | – | – | – | MIC90 | > 32 µg/mL |
| COc1cccc(C(=O)C#Cc2ccc(F)c(F)c2)c1 | – | – | 10 µM, 24 h | reference: untreated | rhamnolipid production | 31% |

| SMILES | test | test system | conditions | how to read | quantity | value |
| --- | --- | --- | --- | --- | --- | --- |
| CC[C@H](C)[C@H](NC(=O)[C@H](C)NC(=O)[C@H](CCCCN)NC(=O)[C@H](CC(C)C)NC(=O)[C@H](C)NC(=O)[C@@H](NC(=O)[C@H](Cc1c[nH]cn1)NC(=O)[C@H](CC(C)C)NC(=O)[C@@H](NC(=O)[C@@H](NC(=O)[C@H](CCCCN)NC(=O)[C@H](C)NC(=O)[C@H](C)NC(=O)[C@H](CO)NC(=O)[C@H](CCCCN)NC(=O)[C@H](Cc1ccccc1)NC(=O)[C@@H](NC(=O)[C@H](CCCCN)NC(=O)[C@H](CC(C)C)NC(=O)[C@H](Cc1ccccc1)NC(=O)[C@H](CO)NC(=O)[C@H](CCCCN)NC(=O)[C@H](Cc1c[nH]c2ccccc12)NC(=O)[C@H](CCCCN)NC(C)=O)[C@@H](C)O)[C@@H](C)O)C(C)C)[C@@H](C)O)C(=O)N[C@@H](CO)C(=O)N[C@@H](CO)C(N)=O | – | – | 43 strains | – | MIC50 | 8 µg/mL (≈ 2.73 µM) |
| Nc1nc2ccc(Oc3cccnc3)cc2s1 | pyocyanin production | PA14-lux | 200 µM, 18 h | reference: DMSO vehicle | inhibition | 18% |
| CC1(C)S[C@@H]2[C@H](NC(=O)C(C(=O)O)c3ccccc3)C(=O)N2[C@H]1C(=O)O (stereo partly drawn) | – | pvdS mutant | – | – | MIC | 25 µg/mL |
| O=C(C#Cc1ccc(F)c(F)c1)c1ccccc1Cl | – | – | 10 µM, 24 h | reference: untreated | exoprotease production | 50% |
| CC[C@H](C)[C@H](NC(=O)[C@H](Cc1ccccc1)NC(=O)[C@@H](NC(=O)[C@H](Cc1c[nH]c2ccccc12)NC(=O)[C@@H]1CCCN1C(=O)[C@@H](NC(=O)[C@H](C)N)[C@@H](C)CC)[C@@H](C)CC)C(=O)N[C@@H](Cc1ccccc1)C(=O)N[C@@H](CCCNC(=N)N)C(=O)N[C@@H](CC(C)C)C(=O)N[C@@H](CC(C)C)C(=O)N[C@@H](CCCNC(=N)N)C(=O)N[C@@H](CCCCN)C(=O)NCC(N)=O | – | PAO1 | 18 h, 37 °C | – | MBC | > 15 µM |
| CC1(C)SC2C(NC(=O)C(NC(=O)C3=C(O)C(Cc4ccccc4)NC3=O)c3ccccc3)C(=O)N2C1C(=O)O (stereo not drawn) | – | pvcA mutant | – | – | MIC | 12.5 µg/mL |
| COc1cc2oc([N+](=O)[O-])cc2c2ccccc12 | REMA | – | – | – | MIC90 | > 32 µg/mL |
| CC[C@H](C)[C@H](NC(=O)[C@H](CC(C)C)NC(=O)[C@H](CCCCN)NC(=O)[C@@H](NC(=O)[C@H](C)NC(=O)[C@H](CCC(=O)O)NC(=O)[C@H](Cc1c[nH]cn1)NC(=O)[C@@H](NC(=O)[C@H](CCCCN)NC(=O)[C@H](CCC(N)=O)NC(=O)[C@H](Cc1ccccc1)NC(=O)[C@@H](N)C(C)C)[C@@H](C)CC)[C@@H](C)CC)C(N)=O | broth microdilution | 4007 resistant | 18 h, 37 °C | – | MIC | > 128 µM |
| COc1cccc(C(=O)C#Cc2ccc(O)c(OC)c2)c1 | – | – | 10 µM, 24 h | reference: untreated | exoprotease production | 77% |
| Nc1ccc(S(=O)(=O)c2ccc3nc(N)sc3c2)cn1 | pyocyanin production | PA14-lux | 200 µM, 18 h | reference: DMSO vehicle | inhibition | 12.3% |
| CC(C)(C)Oc1ccc(CC2NC(=O)C(C(=O)NC(C(=O)NC3C(=O)N4C3SC(C)(C)C4C(=O)O)c3ccccc3)=C2O)cc1 (stereo not drawn) | – | pqsE mutant | – | – | MIC | 6.25 µg/mL |
| CC[C@H](C)[C@H](NC(=O)[C@H](CC(N)=O)NC(=O)[C@H](Cc1ccccc1)NC(=O)[C@H](CCCNC(=N)N)NC(=O)[C@H](CCCNC(=N)N)NC(=O)[C@@H](N)CCCCN)C(=O)N[C@@H](CCCCN)C(=O)N[C@@H](CC(C)C)C(=O)N[C@@H](Cc1c[nH]c2ccccc12)C(=O)N[C@@H](CCCCN)C(=O)N[C@H](C(=O)N[C@@H](Cc1ccccc1)C(=O)O)[C@@H](C)O | – | – | – | – | MBC | 16 µg/mL |
| Nc1nc2ccc([S+]([O-])c3ccncc3)cc2s1 (stereo not drawn) | swarming area, modified FAB agar | PA14-lux | 200 µM, 24 h | reference: DMSO vehicle | inhibition | 27.1% |
| CC[C@H](C)[C@H](NC(=O)[C@H](Cc1c[nH]c2ccccc12)NC(=O)[C@@H](NC(=O)[C@H](Cc1ccc(O)cc1)NC(=O)[C@@H]1CCCN1C(=O)[C@@H](NC(=O)[C@H](C)N)[C@@H](C)CC)[C@@H](C)CC)C(=O)N[C@@H](Cc1ccc(O)cc1)C(=O)N[C@@H](CCCNC(=N)N)C(=O)N[C@@H](CC(C)C)C(=O)N[C@@H](CC(C)C)C(=O)N[C@@H](CCCNC(=N)N)C(=O)N[C@@H](CCCCN)C(=O)NCC(N)=O | – | PAO1 | 18 h, 37 °C | – | MBC | > 15 µM |
| O=[N+]([O-])c1cc2c(ccc3c2ccc2cc([N+](=O)[O-])oc23)o1 | REMA | – | – | – | MIC90 | > 32 µg/mL |
| Nc1nc2ccc(S(=O)(=O)c3cnn(CCO)c3)cc2s1 | swarming area, modified FAB agar | PA14-lux | 200 µM, 24 h | reference: DMSO vehicle | inhibition | 11.4% |
| COc1cc(C#CC(=O)c2ccccc2OC)ccc1O | – | – | 10 µM, 24 h | reference: untreated | exoprotease production | 66% |
| Nc1nc2ccc(CN3CCNC3=O)cc2s1 | swarming area, modified FAB agar | PA14-lux | 200 µM, 24 h | reference: DMSO vehicle | inhibition | 15.1% |
| O=C(C#Cc1ccc(F)c(F)c1)c1cccc(Cl)c1 | – | – | 10 µM, 24 h | reference: untreated | exoprotease production | 47% |

A few entries again:
| SMILES | test | test system | conditions | how to read | quantity | value |
| --- | --- | --- | --- | --- | --- | --- |
| CC[C@H](C)[C@H](NC(=O)[C@H](CC(C)C)NC(=O)[C@H](CCCCN)NC(=O)[C@@H](NC(=O)[C@H](C)NC(=O)[C@H](CCC(=O)O)NC(=O)[C@H](Cc1c[nH]cn1)NC(=O)[C@@H](NC(=O)[C@H](CCCCN)NC(=O)[C@H](CCC(N)=O)NC(=O)[C@H](Cc1ccccc1)NC(=O)[C@@H](N)C(C)C)[C@@H](C)CC)[C@@H](C)CC)C(N)=O | broth microdilution | 4007 resistant | 18 h, 37 °C | – | MIC | > 128 µM |
| COc1cccc(C(=O)C#Cc2ccc(O)c(OC)c2)c1 | – | – | 10 µM, 24 h | reference: untreated | exoprotease production | 77% |
| Nc1ccc(S(=O)(=O)c2ccc3nc(N)sc3c2)cn1 | pyocyanin production | PA14-lux | 200 µM, 18 h | reference: DMSO vehicle | inhibition | 12.3% |
